Results pooled from the literature.
A part holds a random share of what one study measured.
UniProt O15294, sequence (whole entry, looked up): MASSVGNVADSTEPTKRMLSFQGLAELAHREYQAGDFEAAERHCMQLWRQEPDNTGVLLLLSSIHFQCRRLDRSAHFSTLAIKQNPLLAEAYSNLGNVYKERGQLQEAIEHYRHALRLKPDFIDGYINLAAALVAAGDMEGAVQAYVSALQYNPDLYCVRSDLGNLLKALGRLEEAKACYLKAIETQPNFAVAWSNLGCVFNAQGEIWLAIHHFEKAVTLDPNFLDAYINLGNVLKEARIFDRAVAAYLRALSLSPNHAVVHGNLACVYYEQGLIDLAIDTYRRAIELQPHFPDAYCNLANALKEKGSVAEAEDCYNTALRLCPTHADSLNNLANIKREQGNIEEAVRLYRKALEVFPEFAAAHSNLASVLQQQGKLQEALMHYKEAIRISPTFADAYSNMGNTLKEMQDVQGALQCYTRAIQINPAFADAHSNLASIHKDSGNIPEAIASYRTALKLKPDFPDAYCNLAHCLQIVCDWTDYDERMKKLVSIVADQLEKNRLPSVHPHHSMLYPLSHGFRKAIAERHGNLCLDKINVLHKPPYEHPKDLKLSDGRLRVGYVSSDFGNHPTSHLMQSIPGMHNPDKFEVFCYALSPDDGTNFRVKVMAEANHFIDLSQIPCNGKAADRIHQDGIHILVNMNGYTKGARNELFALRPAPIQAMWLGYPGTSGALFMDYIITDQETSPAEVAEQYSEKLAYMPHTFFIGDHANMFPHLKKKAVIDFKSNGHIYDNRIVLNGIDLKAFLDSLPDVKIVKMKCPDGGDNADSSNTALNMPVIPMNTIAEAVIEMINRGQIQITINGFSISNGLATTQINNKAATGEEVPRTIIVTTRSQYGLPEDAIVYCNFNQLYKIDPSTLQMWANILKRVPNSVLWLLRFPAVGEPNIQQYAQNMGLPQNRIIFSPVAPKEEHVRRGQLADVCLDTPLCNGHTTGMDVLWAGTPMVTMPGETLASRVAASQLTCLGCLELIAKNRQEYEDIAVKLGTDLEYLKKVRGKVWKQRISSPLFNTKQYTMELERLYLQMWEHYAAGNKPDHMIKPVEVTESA

Study 1
Target: Protein max, full length (MAX, Homo sapiens, UniProt P61244-2, residues 1-151)
Technique: protein-binding microarray
Molecule type: double-stranded DNA, one strand shown
Sample: in vitro
Concentration: not given
Setting: k-mer, scored over probes, only values ≥0.25
Reading: higher = stronger binding
Endpoint: E-score
GCTATCAC: 0.267
CACACGCA: 0.319
CGGCACGC: 0.382
CGCGGGCA: 0.322
GCCCGCCC: 0.281
CAGACACG: 0.358
AACACGCA: 0.384
CCGTGTCA: 0.313

Study 2
Target: RING finger protein unkempt homolog, zinc fingers 1-6, GST-SBP tag (UNK, Homo sapiens, UniProt Q9C0B0, residues 30-357)
Technique: RNA Bind-n-Seq
Molecule type: RNA
Sample: in vitro
Concentration: not given
Setting: RNA with constant flanks, human and mouse sites, ends assumed
Reference: input RNA pool
Reading: higher = stronger binding
Endpoint: bound/input enrichment
All sequences stand within: GGGAGUUCUACAGUCCGACGAUC … CAACAGAGGAUUGAGCAUCA
Residues (chain): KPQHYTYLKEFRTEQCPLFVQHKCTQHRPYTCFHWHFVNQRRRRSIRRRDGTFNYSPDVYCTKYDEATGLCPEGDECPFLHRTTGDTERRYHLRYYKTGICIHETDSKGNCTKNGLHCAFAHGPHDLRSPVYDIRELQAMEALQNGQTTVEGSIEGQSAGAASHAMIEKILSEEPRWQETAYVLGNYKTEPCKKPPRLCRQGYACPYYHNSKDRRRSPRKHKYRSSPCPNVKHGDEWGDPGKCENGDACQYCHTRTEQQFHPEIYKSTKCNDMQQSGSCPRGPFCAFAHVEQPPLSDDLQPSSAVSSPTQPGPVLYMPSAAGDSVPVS
CUGAAGCUGGACCCUGCGGGCCGUGGUGAGGGCCAGCUGCCACAGGUGGUCUUCUCUGAUGGGCAGCAGCGGCCCGUGGACCCCGCCCUGCUGGACGAGCUGCAGAAGGUGUUCACCCUG: 0.0496 ratio
GUCAUGGUAUUUUUGGUCUGGAUUAAGCUCUUCAAAUUCAUCAAUUUUAAUAGGACCAUGAGCCAGCUCUCCACAACCAUGUCUCGAUGUGCCAAAGACCUCUUCGGCUUCACCAUAAUG: 1.08 ratio
GAUGUAAGUCAAAGACUUGUUACAUAGAGGGAAAAUGGACUGGGAUAGAGGACAGACUGAUAGUUUCUUUCUUUCAUAUCACAUGUAUAGAGAAAUAAUUAUAUCAGAAACUCACAAACC: 0.291 ratio
UAAGCAUAUUAACAUUUUUAAGCAAAAGAUACGUUAACAGUGACCUUUGGUUAUCCACAGUAGCAAGAGUAAAGCACAGAUCAUUGAAAUCCAUAGAUAAUCAGUGAAUCAACUUUCCUA: 0.159 ratio
UUGGAAGUGUAUCCUCCCUUCUUAUUUUUUCUAGCUGUUGGAGGUGUUUACCACCCGCGUAUAGCUUCUGGCCUGGGCUUGGCCUGGAUUGUUGGACGAGUUCUUUAUGCUUAUGGCUAU: 0.409 ratio
AGGUCCAGACACGGGAACGGAGGCCUGGCUGCGUUGCCCUAUCUCCGUCUCCGCCACCCACUUAGCGUUUUAGGCAUCAAUUACCAGCAGUUUCUCCGCCACUAUCUGGAAAAUUACCCG: 3.65 ratio
CUGUUGGAUGGUUUUCCAAGGACACUUCCACAGGCAGAAGCCCUAGAUAGAGCUUAUCAGAUCGACACAGUGAUUAACCUGAAUGUGCCCUUUGAGGUCAUUAAACAACGCCUUACUGCU: 0.299 ratio
ACUACCACAAGGGGACAUGAAGCAGCUGACAGAAGACACGAGGCUACAACUCUGCAAACUGCUGGAAAUUCCUGAUCCAGACAAAAACUGGGCCACUCUGGCACAGAAGUUGGGUCUGGG: 0.11 ratio

Study 3
Target: Fragile X messenger ribonucleoprotein 1, C-terminal low-complexity region (Fmr1, Mus musculus, UniProt P35922)
Technique: RNA Bind-n-Seq
Molecule type: RNA
Sample: in vitro
Concentration: 200 nM
Setting: whole 134-nt RNA, ends assumed
Added: 150 mM KCl
Reference: input library
Reading: higher = stronger binding
Endpoint: log2 enrichment
All sequences stand within: GGGAGUUCUACAGUCCGACGAUC … UGGAAUUCUCGGGUGUCAAGG
GCAGGAAGUAAAAACAAAUGGAAAUGCUUCGGAUAGUGGCAGGGGUCGGGGUUGCUAAGGAAAGGGUGGGAUGGGAGUGGGUAAAGAGUU: 0.285
CUCAAGUCCUGUGCUACACAUCGUAUGUACCGAAUCGGGGAGGGAGGGGAGGGAAAGUAUUAUGUUACGCCGUUCGGAUCUGCACUUCCA: 1.32
UGGCCCUGGUGGCGUGCGGGGAGGAAGAGGUGGCCUCAUGGAUCGUGGUGGUCCCGGUGGAAUGUUCAGAGGUGGCCGUGGUGGAGACAG: 0.575
GUCCUGUGCUACACAUCGUAUGUACCGAAUCGGAAAAAGGGGAAAAAGGAAAAAGGGGAAAGUAUUAUGUUACGCCGUUCGGAUCUGCAC: -0.31
AGUCCUGUGCUACACAUCGUAUGUACCGAAUCGGGAAAAGGGAAAAGGGGAAAAGGGAAAGUAUUAUGUUACGCCGUUCGGAUCUGCACU: 0.0253
AGUCCUGUGCUACACAUCGUAUGUACCGAAUCGGGGUUUGGGGAAAGGGGUUUGGGGAAAGUAUUAUGUUACGCCGUUCGGAUCUGCACU: 0.779
UCAAGUCCUGUGCUACACAUCGUAUGUACCGAAUCGGGAAAGGGAGGGUUUGGGAAAGUAUUAUGUUACGCCGUUCGGAUCUGCACUUCC: 1.07
CUCAAGUCCUGUGCUACACAUCGUAUGUACCGAAUCGGGCCCGGCCCGGCCCGGAAAGUAUUAUGUUACGCCGUUCGGAUCUGCACUUCC: -0.412

Single results of other studies
DNVYPMYQMTYKAID
enrichment fold change (UDP-N-acetylglucosamine--peptide N-acetylglucosaminyltransferase 110 kDa subunit (OGT, Homo sapiens, UniProt O15294); binding, phage display NGS; peptide; concentration not given, panning round 2; reference: input library): 8.76

Repeated from above (study 3):
GUCCUGUGCUACACAUCGUAUGUACCGAAUCGGAAAAAGGGGAAAAAGGAAAAAGGGGAAAGUAUUAUGUUACGCCGUUCGGAUCUGCAC: -0.31
AGUCCUGUGCUACACAUCGUAUGUACCGAAUCGGGAAAAGGGAAAAGGGGAAAAGGGAAAGUAUUAUGUUACGCCGUUCGGAUCUGCACU: 0.0253
AGUCCUGUGCUACACAUCGUAUGUACCGAAUCGGGGUUUGGGGAAAGGGGUUUGGGGAAAGUAUUAUGUUACGCCGUUCGGAUCUGCACU: 0.779
